Measurements from different studies.
Lines come from different studies, so protocols differ. ± gives the spread as reported.

The chains behind the UniProt entries cited, without tags or fusion partners.
UniProt P9WPP7, whole entry: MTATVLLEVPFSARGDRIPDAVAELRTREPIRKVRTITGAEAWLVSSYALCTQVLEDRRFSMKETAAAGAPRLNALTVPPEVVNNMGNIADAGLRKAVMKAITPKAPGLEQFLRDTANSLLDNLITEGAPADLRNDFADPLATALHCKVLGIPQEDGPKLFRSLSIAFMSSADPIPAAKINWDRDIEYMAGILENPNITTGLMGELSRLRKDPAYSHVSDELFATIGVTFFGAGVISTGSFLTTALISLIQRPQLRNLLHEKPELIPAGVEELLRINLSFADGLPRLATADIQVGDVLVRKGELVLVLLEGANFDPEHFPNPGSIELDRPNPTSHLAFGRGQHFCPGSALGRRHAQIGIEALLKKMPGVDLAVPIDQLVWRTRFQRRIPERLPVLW

SMILES | tested on | test | test system | conditions | scale | endpoint | value
O=C(NNC(=S)Nc1cccc(C(F)(F)F)c1)c1cccn1-c1ccc(F)cc1 | HeLa, transfected luciferase | protein folding, measured: wild type firefly luciferase |  | above 5 µM |  | luciferase activity | decreased
CN1CCN(c2ccc(-c3cccc(CN4CCN(CCNC(=O)CCCCCCCNc5cccc6c5C(=O)N(C5CCC(=O)NC5=O)C6=O)CC4)c3)cc2NC(=O)c2c[nH]c(=O)cc2C(F)(F)F)CC1 (stereo not drawn) | MV4;11 and RS4;11 cells | degrader, chromatin fraction immunoblot, measured: MLL, RBBP5, Menin |  | 0.5 µM, 4 days | baseline: OICR-9429 or pomalidomide | chromatin-bound protein level | decreased
COc1ccc(C(O)(c2ccccc2)c2ccccc2)cc1 | HeLa | mitotic arrest |  | 4 h |  | EC50 | 49 µM
Cc1ccc(C(C)C)cc1Oc1nccc(-c2c(-c3ccc(C(F)(F)F)cc3)ncn2[C@H]2CC[C@@H](N)C2)n1 | TSEC | qPCR, measured: CCL2 |  | 1.25 µM, with: LPS |  | mRNA level | decreased
CC1(C)CC[C@]2(C(=O)O)CC[C@]3(C)C(=CC[C@@H]4[C@@]5(C)CC[C@H](OC(=O)NCc6ccccc6)C(C)(C)[C@@H]5CC[C@]43C)[C@@H]2C1 | N2a cells expressing human APP695 | ELISA | conditioned medium | concentration not given |  | Aβ reduction | 10 to 40%
O=S(=O)(NCc1[nH]nnc1CNC1CCCCC1)c1ccc(Cl)c(Cl)c1 | Escherichia coli BL21 expressing VIM-2 |  |  | 10 µM, with: imipenem | baseline: imipenem alone | imipenem MIC fold reduction | 3 fold
CCCCCCCCCCCCNC(=O)N[C@H](C(=O)N[C@H]1/C=C/CCNC(=O)/C=C/[C@H](C)NC1=O)C(C)C | Granta bortezomib-resistant | cell viability |  |  | baseline: EC50 resistant over parental Granta | resistance index | 2 ± 0.1
CC(C)C(C(=O)N(Cc1ccc(C2CCCCC2)cc1)c1ccc(C(=O)O)cc1)N(C)S(=O)(=O)c1c(F)c(F)c(F)c(F)c1F (stereo not drawn) | Panc1005 | cell viability, MTS |  | 72 h |  | ED50 | 2.4 ± 0.2 µM
[O-][S+](CCCCOc1ccc(C(=C2C3CC4CC(C3)CC2C4)c2ccc(O)cc2)cc1)CCCC(F)(F)C(F)(F)F (stereo not drawn) | MCF7 inducible ERα D538G | cell proliferation, inhibitor, MTT |  | 5 days |  | IC50 | 0.02 µM
O=C(Nc1ccccc1OS(=O)(=O)c1ccc(OC(F)(F)F)cc1)c1cnccn1 | MCF7 transfected with human P2X7R | cell proliferation, antagonist |  | 10 µM, with: Bz-ATP 100 µM | baseline: control | inhibition | 70%
COc1ccc2c(c1)c(CC(=O)NCCCCNC(=O)CCC(=O)OC1c3cc4c(cc3C(c3cc(OC)c(OC)c(OC)c3)C3C(=O)OCC13)OCO4)c(C)n2C(=O)c1ccc(Cl)cc1 (stereo not drawn) | 1483 HNSCC cells | WST-1 |  | 48 h | baseline: vehicle | minimum cell number | ~35%
N#Cc1ccc2cc3c(=O)[nH]c(=O)nc-3n(-c3cccc(-c4nnn[nH]4)c3)c2c1 | DU-145 | cell growth, ATPlite |  | 72 h |  | GI50 | 85.7 µM
C[C@]12CCC3=C(C(=O)c4occ5c4[C@]3(C)[C@H]3O[C@H]3C5=O)[C@@H]1CCC2=O | MDA-MB-231 | DCFH-DA fluorescence |  | concentration not given, unit not given | baseline: untreated | ROS level | 1.21
O=C(Cc1cccs1)NCB(O)O | Escherichia coli DH10B expressing blaADC | agar dilution |  | 4 µg/mL, MIC of ceftazidime, with: ceftazidime |  | MIC of ceftazidime | 8 µg/mL
Cc1nn(C)c2c(C(C(=O)O)N3CC(OCCCCc4ccc5c(n4)NCCC5)C3)cccc12 (stereo not drawn) | PAH PASMCs | Western blot, measured: MCM2, survivin |  | concentration not given, 48 h |  | protein level | decreased
O=C(Cc1cccs1)NC(B(O)O)c1cccc(C(=O)O)c1 (stereo not drawn) | Escherichia coli DH10B expressing blaADC | agar dilution |  | 4 µg/mL, MIC of ceftazidime, with: ceftazidime |  | MIC of ceftazidime | 4 µg/mL
O=C(C=Cc1ccc(-c2ccccc2)cc1)Nc1ccc(Oc2ccccc2)c(S(=O)(=O)O)c1 | HEK293 AP-1-luc | AP-1 reporter gene, inhibitor |  | 24 h, with: 20% serum |  | IC50 | 0.63 µM
[O-][S+](CCCCOc1ccc(C(=C2C3CCCC2CCC3)c2ccc(O)cc2)cc1)CCCC(F)(F)C(F)(F)F (stereo not drawn) | MCF7 inducible ERα D538G | cell proliferation, inhibitor, MTT |  | 5 days |  | IC50 | 0.018 µM
Cc1cscc1-c1ccc(Cn2ccnc2)cc1 | cyp121 (Mycobacterium tuberculosis, UniProt P9WPP7) | binding |  |  |  | Kd | 21.7 ± 2 µM
Cc1ncsc1-c1ccc([C@H](C)NC(=O)[C@@H]2C[C@@H](O)CN2C(=O)[C@@H](NC(=O)COCCOCCOCCOCCNC(=O)c2ccc(CN3CCN(S(=O)(=O)c4ccc(NC(=S)NCc5cccnc5)cc4)CC3)cc2)C(C)(C)C)cc1 | mouse bone marrow cells |  |  | concentration not given, with: co-culture with MC-38 cells |  | MDSC expansion | inhibited
CN(Cc1cn(-c2ccc(OCCCF)cc2)nn1)S(=O)(=O)c1ccc(CN2CCOCC2)cc1 | MDA-MB-231 | Matrigel invasion, antagonist |  | 100 nM, 22 h, with: CXCL12 200 ng/mL |  | inhibition | 85%

Excerpt of the above:
SMILES | tested on | test | test system | conditions | scale | endpoint | value
COc1ccc(C(O)(c2ccccc2)c2ccccc2)cc1 | HeLa | mitotic arrest |  | 4 h |  | EC50 | 49 µM
